Experimental data pooled from the literature.
Protocols differ between the studies behind these lines. Several values in a cell are separate wells, animals, samples, runs or records.
Target: Calcium/calmodulin-dependent protein kinase type II subunit gamma (CAMK2G, Homo sapiens, UniProt Q13555)

| SMILES | test | system | setting | how to read | measurement | result |
| --- | --- | --- | --- | --- | --- | --- |
| Cc1ccc(-c2c(/C=C(\C#N)C(=O)NC(C)C)n(CCCO)c3ncnc(N)c23)cc1 | cell-free assay, competition with immobilised ligand |  | 1 µM |  | remaining binding | 100% |
| Nc1ncc(-c2cc(-c3cnn(CC(F)(F)F)c3)ncc2F)nc1C(=O)NC1CNCC(F)C1 (stereo not drawn) | enzyme activity |  | 1 µM | relative to: DMSO control | remaining activity | 107% |
| COc1ccc(NC(=O)Nc2ccc3c(c2)C(=O)N(C(C)CO)CC(C)C(CN(C)Cc2ccc4c(c2)OCO4)O3)cc1 (stereo not drawn) | kinase activity, KinaseProfiler |  | 0.03 µM, species human | relative to: control | remaining activity | 104% |
| O=C(Cc1ccc(OCc2ccccc2)cc1)NC1(C(=O)O)CCN(C(=O)c2ccc(-c3cccc(Cl)c3)cc2)CC1 | enzyme activity, inhibitor |  | 10 µM |  | activity vs control | 96% |
| C=CC(=O)Nc1cccc(-c2cnc3[nH]cc(C(=O)NC(C)(C)C)c3n2)c1 | kinase activity |  | 0.1 µM |  | inhibition | -1% and 0% |
| NC(=O)[C@@H](O)C[C@H]1CCc2sc3ncnc(O[C@H]4CC[C@H](N5CCOCC5)CC4)c3c21 | enzyme activity, inhibitor |  | 10 µM |  | inhibition | -6% |
| CCn1cc(C(=O)O)c(=O)c2c(N)c(F)c(NC3CCCCC3)cc21 | kinase activity |  | 0.1 µM, added: ATP at Km |  | inhibition | 1.2% |
| COc1c(Cl)cccc1Nc1c(-c2ccncc2C#C[C@@]2(C)CCCN2C(=O)/C=C/CN(C)C)[nH]c2c1C(=O)NCC2 | binding, competition with immobilised ligand |  | 3 µM |  | remaining binding | 100% |
| CS(=O)(=O)Nc1cccc(-c2csc3cnc(Nc4ccc(N5CCN(CCCCCOc6cccc7c6C(=O)N(C6CCC(=O)NC6=O)C7=O)CC5)cc4)nc23)c1 (stereo not drawn) | probe labelling, inhibitor, KiNativ chemoproteomics | MOLT-4 | 1 µM |  | inhibition | -4.27% |
| COc1cc(Nc2nccc(-c3cnn4nc(OC)ccc34)n2)cc(C(F)(F)F)c1 | binding, competition with immobilised ligand |  | 1 µM |  | remaining binding | 100% |
| Cc1cccc(O[C@H]2CCC[C@@H](C(C)CNCc3ccncc3)C2)c1 (relative stereo) | cell-free assay |  | 10 µM |  | inhibition | -14% |
| CNC1C[S+]2CC[S+]3CC[S+](C1)[Ru-4]321([N]=C=S)[n]2c3ccc(OC)cc3c3c4c(c5cc(F)c[n+]1c5c32)C(=O)NC4=O (stereo not drawn) | KinomeScan |  | 0.1 µM | relative to: untreated | remaining binding | 84% |
| CC(C)=CC1OC(C)(C)C2C=C3C(=O)C(Cl)=CC(O)C3C3C(O)C4OC4C(=O)C132 (stereo not drawn) | cell-free assay, competition with immobilised ligand |  | 10 µM |  | remaining binding | 94% |
| CNC(=O)C[C@H](Cc1ccc(C#N)cc1)NC(=O)c1cc(-c2ccc(CN[C@H](C)c3ccc(C)cc3)o2)ccc1Cl | enzyme activity, inhibitor |  | 1 µM |  | activity vs control | 93% |
| C=CC(=O)N1Cc2nc(-c3cc(-c4cc(Cl)cnc4Cl)c(F)cc3F)n(-c3ccncn3)c2C1 | cell-free assay |  | 1 µM |  | inhibition | 4.8% |

Excerpt of the above:
| SMILES | test | system | setting | how to read | measurement | result |
| --- | --- | --- | --- | --- | --- | --- |
| CS(=O)(=O)Nc1cccc(-c2csc3cnc(Nc4ccc(N5CCN(CCCCCOc6cccc7c6C(=O)N(C6CCC(=O)NC6=O)C7=O)CC5)cc4)nc23)c1 (stereo not drawn) | probe labelling, inhibitor, KiNativ chemoproteomics | MOLT-4 | 1 µM |  | inhibition | -4.27% |
